Assay results of several laboratories.
A part holds a random share of what one study measured.

Sample 1
Target: Histone acetyltransferase KAT6A, both winged helices, GST fusion (KAT6A, Homo sapiens, UniProt Q92794, residues 1-181)
Method: protein binding microarray
Molecule type: double-stranded DNA, one strand shown
Medium: in vitro
Tested at: not given
Notes: 8-mer, flanks averaged, mean of 2 arrays, mostly near background
Reference: not given
Direction: higher = stronger binding
Endpoint: E-score
Construct (chain): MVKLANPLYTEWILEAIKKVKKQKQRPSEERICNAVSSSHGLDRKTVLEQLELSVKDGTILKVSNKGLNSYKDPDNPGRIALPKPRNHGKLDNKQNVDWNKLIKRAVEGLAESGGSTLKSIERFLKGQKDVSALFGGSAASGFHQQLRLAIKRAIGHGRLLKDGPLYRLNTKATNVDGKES
Oligonucleotide = CCTTTGCA; value = -0.0906
Oligonucleotide = CGTGAGCA; value = 0.174
Oligonucleotide = ACGGATGA; value = 0.164
Oligonucleotide = TAACGACA; value = 0.0402
Oligonucleotide = CAAGTTTC; value = 0.00756
Oligonucleotide = GCCCGCGC; value = 0.371

Sample 2
Target: RING finger protein unkempt homolog, zinc fingers 1-6, GST-SBP tag (UNK, Homo sapiens, UniProt Q9C0B0, residues 30-357)
Method: RNA Bind-n-Seq
Molecule type: RNA
Medium: in vitro
Tested at: not given
Notes: RNA with constant flanks, ends assumed
Reference: input RNA pool
Direction: higher = stronger binding
Endpoint: bound/input enrichment
Residues (chain): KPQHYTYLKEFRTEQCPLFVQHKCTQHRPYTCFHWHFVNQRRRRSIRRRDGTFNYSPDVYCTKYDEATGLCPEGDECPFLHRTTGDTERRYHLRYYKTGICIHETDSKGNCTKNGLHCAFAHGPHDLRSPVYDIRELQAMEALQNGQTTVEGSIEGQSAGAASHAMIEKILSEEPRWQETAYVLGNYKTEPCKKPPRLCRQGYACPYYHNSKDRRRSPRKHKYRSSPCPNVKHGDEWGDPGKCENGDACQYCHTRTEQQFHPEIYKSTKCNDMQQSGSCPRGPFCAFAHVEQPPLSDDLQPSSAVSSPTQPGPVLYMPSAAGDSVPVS
Oligonucleotide = GGGAGUUCUACAGUCCGACGAUCACCACUGCACUUUCCAGACAAGCAGGCCAAGAAACUCUUUCAGUCCUCAAGUUCACCAAGUCUCCGCAUACAGUGUGUGCCCAGAACUACUGGAAACUGAAUGCAUUUAGCAUAUUUUGACAACAGAGGAUUGAGCAUCA; value = 0.426 ratio
Oligonucleotide = GGGAGUUCUACAGUCCGACGAUCUCUAUUCGAAACCCCAAAGCCCGAGCCGUAACGUUAAGGGUUAAACUUUCCAGUUUGAAUUCCGACAAUCAUGCCAAGAAAAAACUCAUUAAGCUUGUAGGAGAGCGGUACUGCAAGGCCCAACAGAGGAUUGAGCAUCA; value = 0.192 ratio
Oligonucleotide = GGGAGUUCUACAGUCCGACGAUCCAGUGGCCCCAUGGAGAGCUUUCUCUGUCUGGGAUUGAACUGAGAUCCUGAGGUUUUCUUUCCGGAAACUAAAGUAAACUUGCCAUUACUAAAUUUGUAAAGUUGAGAUUCACUCCUUAACAACAGAGGAUUGAGCAUCA; value = 0.093 ratio
Oligonucleotide = GGGAGUUCUACAGUCCGACGAUCAGGAAGAAUCUUUUUGAAAGGCCUUUAUUCAAUACCCAUUUACAGAAGUCCUUUGUAAGCCGCAACUGGGCUGAAACACCAAGACUAGGAAAAAAAAAUGAAAGCUCUUAUUUCCCAGGACAACAGAGGAUUGAGCAUCA; value = 3.37 ratio

Sample 3
Target: Sal-like protein 4, full length isoform A (SALL4, Homo sapiens, UniProt Q9UJQ4, residues 1-1053)
Sequence of UniProt Q9UJQ4 (whole entry, looked up): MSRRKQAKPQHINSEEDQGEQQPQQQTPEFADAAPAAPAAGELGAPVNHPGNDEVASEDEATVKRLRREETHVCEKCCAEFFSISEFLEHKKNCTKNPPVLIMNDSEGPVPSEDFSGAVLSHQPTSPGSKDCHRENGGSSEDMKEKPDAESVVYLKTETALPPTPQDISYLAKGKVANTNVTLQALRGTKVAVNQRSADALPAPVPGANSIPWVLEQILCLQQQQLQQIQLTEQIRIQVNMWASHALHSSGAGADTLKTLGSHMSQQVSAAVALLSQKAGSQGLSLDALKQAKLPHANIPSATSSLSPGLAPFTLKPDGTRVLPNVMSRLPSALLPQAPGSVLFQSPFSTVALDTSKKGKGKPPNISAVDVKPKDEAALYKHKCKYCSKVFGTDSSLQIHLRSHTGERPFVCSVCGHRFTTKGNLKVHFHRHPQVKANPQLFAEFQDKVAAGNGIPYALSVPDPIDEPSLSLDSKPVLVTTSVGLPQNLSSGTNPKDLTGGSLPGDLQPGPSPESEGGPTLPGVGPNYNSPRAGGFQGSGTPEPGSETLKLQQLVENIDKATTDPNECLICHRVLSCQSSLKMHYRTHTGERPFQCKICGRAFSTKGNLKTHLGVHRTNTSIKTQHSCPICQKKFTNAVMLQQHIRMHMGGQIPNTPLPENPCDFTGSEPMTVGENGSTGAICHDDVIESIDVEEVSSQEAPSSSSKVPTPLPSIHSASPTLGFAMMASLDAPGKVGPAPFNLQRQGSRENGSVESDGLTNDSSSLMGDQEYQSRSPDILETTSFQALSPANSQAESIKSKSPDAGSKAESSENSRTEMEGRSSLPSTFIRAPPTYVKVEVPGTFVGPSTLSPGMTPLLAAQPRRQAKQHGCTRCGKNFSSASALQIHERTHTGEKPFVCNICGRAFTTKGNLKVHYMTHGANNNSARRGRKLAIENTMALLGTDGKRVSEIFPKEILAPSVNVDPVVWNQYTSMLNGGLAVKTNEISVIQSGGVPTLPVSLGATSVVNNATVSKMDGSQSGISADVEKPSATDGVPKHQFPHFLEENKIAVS
Method: universal PBM
Molecule type: double-stranded DNA, one strand shown
Medium: in vitro
Tested at: 600 nM
Notes: 8-mer, flanks averaged, mean of replicates
Direction: higher = stronger binding
Endpoint: E-score
Oligonucleotide = CGGAAACA; value = 0.0205
Oligonucleotide = CCTAAGAA; value = 0.106
Oligonucleotide = CTATGGGC; value = -0.152
Oligonucleotide = TGAGGCCA; value = -0.127
Oligonucleotide = CGGCGCAA; value = -0.227
Oligonucleotide = CATGAGCA; value = -0.106
Oligonucleotide = GCCCGAAA; value = -0.0699
Oligonucleotide = AACGTAAA; value = 0.255

Further values, each from its own experiment
Molecule = PhoQ, residues 284 288 289 292 302 303 DDMDFR; target = PhoP, residues 12 14 15 18 19 AWHSL (Escherichia coli, UniProt P23836); test = Sort-seq, measured: YFP reporter; test system = E. coli; setting = PhoQ-PhoP variant library, added: 10 µM Mg2+; how to read = reference: high Mg2+ state, higher = stronger signaling; endpoint = fold induction; value = 0.891

For quick reference, copied from above (sample 2):
Oligonucleotide = GGGAGUUCUACAGUCCGACGAUCUCUAUUCGAAACCCCAAAGCCCGAGCCGUAACGUUAAGGGUUAAACUUUCCAGUUUGAAUUCCGACAAUCAUGCCAAGAAAAAACUCAUUAAGCUUGUAGGAGAGCGGUACUGCAAGGCCCAACAGAGGAUUGAGCAUCA; value = 0.192 ratio
Oligonucleotide = GGGAGUUCUACAGUCCGACGAUCCAGUGGCCCCAUGGAGAGCUUUCUCUGUCUGGGAUUGAACUGAGAUCCUGAGGUUUUCUUUCCGGAAACUAAAGUAAACUUGCCAUUACUAAAUUUGUAAAGUUGAGAUUCACUCCUUAACAACAGAGGAUUGAGCAUCA; value = 0.093 ratio
Oligonucleotide = GGGAGUUCUACAGUCCGACGAUCAGGAAGAAUCUUUUUGAAAGGCCUUUAUUCAAUACCCAUUUACAGAAGUCCUUUGUAAGCCGCAACUGGGCUGAAACACCAAGACUAGGAAAAAAAAAUGAAAGCUCUUAUUUCCCAGGACAACAGAGGAUUGAGCAUCA; value = 3.37 ratio
